Assay results from different studies.
Lines come from different studies, so protocols differ. ± marks the error that the study gave.

| Compound | cell line | test | setting | scale | quantity | result |
| --- | --- | --- | --- | --- | --- | --- |
| Clc1ccc(C=[N+]2N=C(Nc3ccccc3)[S][Pd-]2([Cl])[Cl])s1 | HEL human lung fibroblasts | altered cell morphology, microscopy | confluent cultures | – | cytotoxic concentration | 100 µM |
| CC(=O)OC[C@H]1O[C@@H](Sc2sc(C(=O)c3ccc(Br)cc3)c(N)c2-c2nc3ccccc3s2)[C@H](OC(C)=O)[C@@H](OC(C)=O)[C@H]1OC(C)=O | U-251 | SRB | 10 µM, 48 h | relative to: untreated | growth | 96.2% |
| FC(F)(F)c1ccnc(-c2cc(C(F)(F)F)ccn2)c1.FC(F)(F)c1ccnc(-c2cc(C(F)(F)F)ccn2)c1.[Cl-].[Cl-].[Ru+2].c1csc(-c2ccc(-c3ccc(-c4ccc(-c5nc6c7cccnc7c7ncccc7c6[nH]5)s4)s3)s2)c1 | SK-MEL-28 | cell viability | normoxia, with: red light 633 nm | relative to: dark EC50 over light EC50 | mean phototherapeutic index | 53 |
| N#Cc1[nH]nnc1-c1cccc(Oc2ccccc2)c1 | CHO cells expressing NaCT | measured: [14C]citric acid metabolism | concentration not given, with: antimycin A | – | TCA cycle activation | inhibited |
| COc1cc(CNC(=O)C[C@H](C)CCC=C(C)C)ccc1OCc1cn(-c2ccccc2)nn1 | SF-268 CNS cancer cells | SRB | 10 µM, 48 h | – | growth percent | 92.3% |
| CC1=CC(OC(=O)c2ccccc2)C2(COC(=O)c3ccccc3)CCC(=C(C)C)C2C(O)CC2(C)OC2CC1 (stereo not shown) | HepG2, palmitic acid-induced insulin resistance | – | 15 µM, 24 h | – | glucose consumption | 5.56 ± 0.69 mM |
| COc1cc(CNC(=O)C[C@H](C)CCC=C(C)C)ccc1OCc1cn(-c2ccccc2F)nn1 | SF-268 CNS cancer cells | SRB | 10 µM, 48 h | – | growth percent | 58.9% |
| CCc1cccc(CC)c1NC(=O)c1nn(C)c2c1CCc1cnc(Nc3ccc(N4CCN(C)CC4)cc3OC)nc1-2 | HCT-116 C604Y clone A | cell proliferation | – | relative to: C604Y clone A over parental HCT-116 | IC50 ratio | 18.8 |
| COc1cc(CNC(=O)C[C@H](C)CCC=C(C)C)ccc1OCc1cn(-c2cccc(C(F)(F)F)c2)nn1 | HCC 2998 | SRB | 10 µM, 48 h | – | growth percent | 111% |
| C[C@@H](O)[C@H](NC(=O)[C@@H]1CSSC[C@H](NC(=O)[C@@H](Cc2ccccc2)NC(=O)CCNC(=S)Nc2ccc(C[C@H]3CN(CC(=O)O)CCN(CC(=O)O)CCN3CC(=O)O)cc2)C(=O)N[C@@H](Cc2ccc(O)cc2)C(=O)N[C@H](Cc2c[nH]c3ccccc23)C(=O)N[C@@H](CCCCN)C(=O)N[C@@H]([C@@H](C)O)C(=O)N1)C(=O)O [copper-64 labelled] | HCT116-SSTR2 | – | 15 min to 4 h, 64Cu-labelled | – | internalisation increase | 49% |
| COc1cc(CNC(=O)C[C@H](C)CCC=C(C)C)ccc1OCc1cn(-c2ccc([N+](=O)[O-])cc2)nn1 | HCC 2998 | SRB | 10 µM, 48 h | – | growth percent | 107% |
| CCC(=C(c1ccc(Cl)cc1)c1ccc(OCCN(CC)CC)cc1)c1ccc(OC)cc1 | NCI-60 tumour cell lines | – | 10 µM, mean over cell lines | – | growth inhibition | 48% |
| COc1cc(CNC(=O)C[C@H](C)CCC=C(C)C)ccc1OCc1cn(-c2ccccc2Cl)nn1 | SF-295 CNS cancer cells | SRB | 10 µM, 48 h | – | growth percent | 56.4% |
| COc1cc2c(OC3OCC(OC)C(OC)C3OC(=O)c3ccc(Br)cc3)c3c(c(-c4ccc5c(c4)OCO5)c2cc1OC)C(=O)OC3 (stereo not shown) | CAL-27 and FaDu | MTT | 1 µM, 48 and 72 h | – | viability | decreased |
| O=C(/C=C/c1cccc(S(=O)(=O)NC2CCCCC2)c1)NO | MOPC-315 | cell growth | 24 h | relative to: belinostat | relative potency | 0.714 |
| COc1cc(CNC(=O)C[C@H](C)CCC=C(C)C)ccc1OCc1cn(-c2ccccc2[N+](=O)[O-])nn1 | UACC-257 melanoma cells | SRB | 10 µM, 48 h | – | growth percent | 71.2% |
| CCNc1cc2c(cc1C)C1(c3cc(C)c(NCC)cc3O2)c2ccccc2C(=O)N1N=Cc1c[c-]c(-c2ccccn2)cc1.Cc1c(C)c(-c2ccc(-c3ccccc3)cc2)[c-](C)c1C.[Cl-].[Ir+3] | A549 | JC-1 flow cytometry | up to 2 × IC50 | – | mitochondrial membrane potential | no effect |
| CC(=O)N[C@H](C(=O)N[C@H](C(=O)N[C@@H](CCCNC(=N)N)C(=O)N1Cc2ccccc2C[C@H]1C(=O)N[C@@H](Cc1ccccc1)C(N)=O)C1CCCCC1)C(C)C | MBP-specific BC-3 T cells | Bio-Plex multiplex, measured: PDGF-bb | 200 µg/mL, 24 h, with: MBP87-99 antigen | – | cytokine level | 416 ± 292 pg/mL |
| COC(=O)[C@H]1[C@H]2CCN(CC[C@]3(O)C(=O)Nc4cc(OC)ccc43)C[C@H]2C[C@@H](OC(=O)c2cc(OC)c(OC)c(OC)c2)[C@@H]1OC | NALM-6 | trypan blue count | concentration not given, 72 h | – | growth inhibition | no effect |
